Measurements from different studies.
Parts stem from different laboratories: compare values within a part only.

Set 1 — action: inhibitor; tested at: 20 µM; quantity: inhibition
Target: Replicase polyprotein 1ab, nsp13 helicase (rep, Severe acute respiratory syndrome coronavirus 2, UniProt P0DTD1)
C[C@@H]1COC(Nc2ccc3ncnc(Nc4ccc(OCc5nccs5)c(Cl)c4)c3c2)=N1: 6.68%
COc1cnc(-c2ccc(Cn3c(CC(C)(C)C(=O)O)c(SC(C)(C)C)c4cc(OC[C@@H]5Cc6ccccc6N5C(C)=O)ccc43)cc2)nc1: 9.53%
Cc1ccc(-c2ncccn2)c(C(=O)N2C[C@H](COc3ccc(F)cn3)CC[C@H]2C)c1: 3.06%
CCCCCCCCCCCCCCCCCCOP(=O)([O-])OC1CC[N+](C)(C)CC1: 11.5%
COc1cc2c(cc1OC)-c1c(C)c3ccc(OC)c(OC)c3c[n+]1CC2: 6.29%
COc1ccc(CCc2nc3cc(-c4c(C)noc4C)ccc3n2C[C@H](C)N2CCOCC2)cc1Cl: 8.97%
Cn1cc(C[C@@H](N)C(=O)O)c2ccccc21: 11.8%
CN(C)CCCO[C@@H]1[C@H]2OC(C)(C)O[C@H]2O[C@@H]1[C@H](O)CO: -1.57%
CC(C)C[C@H](N)C(=O)O: 1.72%
NCCc1c[nH]c2ccc(C(N)=O)cc12: 5.69%
C=CCNc1ncnc2ccc(Br)cc12: -2.34%
COc1c(O)cc2c(c1O)[C@@H]1O[C@H](CO)[C@@H](O)[C@H](O)[C@H]1OC2=O: -25.8%
COc1ccccc1Oc1c(NS(=O)(=O)c2ccc(C(C)(C)C)cc2)nc(-c2ncccn2)nc1OCCO: 3.07%
Cc1ccc(Cl)c(OCC(O)CNC(C)(C)C)c1 (stereo not drawn): -10.4%
CC(=O)OCC1=C(C(=O)O)N2C(=O)[C@@H](NC(=O)CSc3ccncc3)[C@H]2SC1: 12.1%
O=C(O)CCC(=O)OC[C@@H](NC(=O)C(Cl)Cl)[C@H](O)c1ccc([N+](=O)[O-])cc1: -2.32%
Cc1coc2c1C(=O)C(=O)c1c-2ccc2c(C)cccc12: 9.95%
CCOC(=O)Nc1cc(-c2ccc(C)c(NS(C)(=O)=O)c2)nn2c(C)nnc12: 7.61%
O=C(O)CCc1nc(-c2ccccc2)c(-c2ccccc2)o1: 1.02%

Set 2 — technique: RNA Bind-n-Seq; molecule type: RNA; matrix: in vitro; tested at: not given; notes: RNA with constant flanks, ends assumed; baseline: input RNA pool; direction: higher = stronger binding; quantity: bound/input enrichment
Target: RING finger protein unkempt homolog, zinc fingers 1-6, GST-SBP tag (UNK, Homo sapiens, UniProt Q9C0B0, residues 30-357)
Residues (chain): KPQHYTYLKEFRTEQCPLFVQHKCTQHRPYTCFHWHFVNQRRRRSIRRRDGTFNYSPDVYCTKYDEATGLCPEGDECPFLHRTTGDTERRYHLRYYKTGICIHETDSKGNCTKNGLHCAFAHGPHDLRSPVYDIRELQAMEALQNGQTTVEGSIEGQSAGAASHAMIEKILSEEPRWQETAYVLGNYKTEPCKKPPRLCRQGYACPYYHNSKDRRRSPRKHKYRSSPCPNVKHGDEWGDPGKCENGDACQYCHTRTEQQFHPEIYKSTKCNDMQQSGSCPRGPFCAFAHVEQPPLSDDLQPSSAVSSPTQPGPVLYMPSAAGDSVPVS
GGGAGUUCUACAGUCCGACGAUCACUGGUGUGGUCGUUGUUGGAAUACAGGGAGAGCCUGAGCGUGGACCCCGCUUUCCCAGAACCCGCCGUGAGGCUGUGCUCCGUGAAAAUGCACCACCAGGGACUCCAGUUAUCUCCCCACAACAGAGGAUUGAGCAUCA: 0.0878 ratio
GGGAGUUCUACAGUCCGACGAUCGUUCAGAAGAGGUUUGGCUUUCCAGAGGGCAGUGUAGAGCUUUAUGCUGAAAAGGUGGCCACCCGAGGUCUGUGUGCCAUUGCCCAGGCAGAGUCUCUGCGUUACAAACUCCUAGGAGGGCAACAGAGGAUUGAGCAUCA: 0.185 ratio
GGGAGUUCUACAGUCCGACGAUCCAGAGUAUAGCAAUUGUUUUUGGUCCCACUCUAUUAAAACCAGAAAAAGAGACUGGUAAUACCGCAGUUCAUACUGUGUACCAGAAUCAGAUUGUAGAAUUAAUUCUUCUGGAACUGAGUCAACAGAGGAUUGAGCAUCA: 0.386 ratio
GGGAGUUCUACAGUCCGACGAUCAAUAAGGAAAAGUAUGGCAAACCAAAUAAAAGAAAAGGUUUUAAUGAAGGUUUAUGGGAGACCGAUAACAAUCCAAAAGUGAAAUUUUCAAGUCAACAGGCAGCAACUAAACAAUCAAAUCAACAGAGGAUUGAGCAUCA: 0.563 ratio
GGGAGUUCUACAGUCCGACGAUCAGCAGAAGCAGGAACGUCAGAAGUUGAAGGGCAUCCUCAGCUGUCCGCGAGUUCUGCCGGACAUUCCAAUUUGGAUUUUUAUUAUUGCUGGAAAAAAGUUUGCUUUACCCCAGACUUGAACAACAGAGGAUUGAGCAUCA: 0.107 ratio
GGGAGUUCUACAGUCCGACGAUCUAUUUUUAUAACUAUCCAGCAGUGUGUGAAUUUUUGCAAAACAAUAAUUUGUUAUCGAUUAUCCGAGCUCAUGAAGCUCAAGAUGCAGGCUAUAGAAUGUACAGAAAAAGUCAAACUACACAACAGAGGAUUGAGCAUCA: 0.386 ratio
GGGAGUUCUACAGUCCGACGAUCCCCCCUCGGAAGAAAAGGGCACGGGCUGACCCCACUGUGGAGAGCGAGGAGGCAUUCAAGAGCCGGAUGGAGGUGAAGGUGAAGAUCCCUGAAGAAUUAAAACCGUGGCUGGUGGAGGACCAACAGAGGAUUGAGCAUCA: 0.518 ratio
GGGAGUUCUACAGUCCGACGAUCGCUUUUUACCUUCUAGCGUUUUUUUACUACCUAUACGGCAUGAUCUAUGUUCUGGUGAGCUCUCCGAACAACACAGAAGAAUCGGUCCAGUUAAGUGCAUGCAAAACGCCACCAAUGAAGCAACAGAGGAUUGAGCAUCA: 0.47 ratio

Set 3 — observed: enzyme activity; action: inhibitor; tested at: 20 µM; notes: primary screen; quantity: inhibition
Target: Replicase polyprotein 1ab, main protease (rep, Severe acute respiratory syndrome coronavirus 2, UniProt P0DTD1)
Nc1ncc2c(n1)CC(c1ccco1)CC2=O (stereo not drawn): 47.5%
NC(Cc1ccc(O)c(O)c1)C(=O)O (stereo not drawn): 33.4%
NCc1c[nH]c(=S)n1[C@H]1CCc2c(F)cc(F)cc2C1: 97.3%
COc1cccc(C(=O)CCN[C@@H](C)[C@H](O)c2ccccc2)c1: 90.8%

Set 4 — cell line: HEK-293T; observed: pseudovirus infection; technique: FDA-approved drug library screen; organism: VSV pseudotyped with SARS-CoV-2 spike; tested at: 10 µM; time: 16 h; baseline: vehicle-treated; quantity: GFP-positive cells
CCN(CC)CCNC(=O)c1c(C)[nH]c(/C=C2\C(=O)Nc3ccc(F)cc32)c1C: 392%
CCn1cc(C(=O)O)c(=O)c2cc(F)c(N3CCNC(C)C3)c(F)c21 (stereo not drawn): 69%
OC(CCCN1CCCCC1)(c1ccccc1)c1ccccc1: 71.8%
CC1(C)O[C@@H]2[C@@H](CO[C@@]3(COS(N)(=O)=O)OC(C)(C)O[C@@H]23)O1: 89.7%
Clc1ccc(CCC(Cn2ccnc2)Sc2c(Cl)cccc2Cl)cc1 (stereo not drawn): 58.5%
CCC(=O)O[C@]1(C(=O)SCF)[C@H](C)C[C@H]2[C@@H]3C[C@H](F)C4=CC(=O)C=C[C@]4(C)[C@@]3(F)[C@@H](O)C[C@@]21C: 108%

Mixed results — technique: protein-binding microarray; molecule type: double-stranded DNA, one strand shown; matrix: in vitro; tested at: not given; direction: higher = stronger binding
Target: Protein max, full length (MAX, Homo sapiens, UniProt P61244-2, residues 1-151)
Notes: k-mer, scored over probes, only values ≥0.25
GCGTGGCA — E-score: 0.411
CGTGGGTC — E-score: 0.362

Repeated from above (set 4):
Clc1ccc(CCC(Cn2ccnc2)Sc2c(Cl)cccc2Cl)cc1 (stereo not drawn): 58.5%
CC1(C)O[C@@H]2[C@@H](CO[C@@]3(COS(N)(=O)=O)OC(C)(C)O[C@@H]23)O1: 89.7%
CCC(=O)O[C@]1(C(=O)SCF)[C@H](C)C[C@H]2[C@@H]3C[C@H](F)C4=CC(=O)C=C[C@]4(C)[C@@]3(F)[C@@H](O)C[C@@]21C: 108%
